Results pooled from the literature.
A part holds a random share of what one study measured. Several values in a cell are separate wells, animals, samples, runs or records.
UniProt Q00535, sequence (whole entry, looked up): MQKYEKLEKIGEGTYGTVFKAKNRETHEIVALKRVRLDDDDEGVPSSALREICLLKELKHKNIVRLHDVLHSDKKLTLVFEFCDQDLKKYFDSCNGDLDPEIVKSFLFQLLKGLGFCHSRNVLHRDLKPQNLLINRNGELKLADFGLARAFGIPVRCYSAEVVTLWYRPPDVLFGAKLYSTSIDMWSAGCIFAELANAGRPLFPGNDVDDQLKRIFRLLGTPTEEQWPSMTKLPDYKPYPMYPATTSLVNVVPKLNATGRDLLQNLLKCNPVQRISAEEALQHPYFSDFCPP
UniProt O95747, sequence (whole entry, looked up): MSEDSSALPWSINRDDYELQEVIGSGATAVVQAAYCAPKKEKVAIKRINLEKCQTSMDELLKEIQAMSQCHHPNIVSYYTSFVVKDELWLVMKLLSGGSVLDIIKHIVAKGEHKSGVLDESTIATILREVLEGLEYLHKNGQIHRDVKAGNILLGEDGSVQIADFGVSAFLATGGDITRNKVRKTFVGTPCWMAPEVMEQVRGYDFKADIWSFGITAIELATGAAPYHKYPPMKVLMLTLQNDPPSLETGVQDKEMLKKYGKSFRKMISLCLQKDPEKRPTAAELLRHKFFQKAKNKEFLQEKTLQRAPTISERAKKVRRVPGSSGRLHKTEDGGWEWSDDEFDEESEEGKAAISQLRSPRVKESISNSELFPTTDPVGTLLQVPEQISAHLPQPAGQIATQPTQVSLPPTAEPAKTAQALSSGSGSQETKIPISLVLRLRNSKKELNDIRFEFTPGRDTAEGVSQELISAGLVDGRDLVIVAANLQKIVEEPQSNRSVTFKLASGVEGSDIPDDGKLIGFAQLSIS
UniProt P07948, sequence (whole entry, looked up): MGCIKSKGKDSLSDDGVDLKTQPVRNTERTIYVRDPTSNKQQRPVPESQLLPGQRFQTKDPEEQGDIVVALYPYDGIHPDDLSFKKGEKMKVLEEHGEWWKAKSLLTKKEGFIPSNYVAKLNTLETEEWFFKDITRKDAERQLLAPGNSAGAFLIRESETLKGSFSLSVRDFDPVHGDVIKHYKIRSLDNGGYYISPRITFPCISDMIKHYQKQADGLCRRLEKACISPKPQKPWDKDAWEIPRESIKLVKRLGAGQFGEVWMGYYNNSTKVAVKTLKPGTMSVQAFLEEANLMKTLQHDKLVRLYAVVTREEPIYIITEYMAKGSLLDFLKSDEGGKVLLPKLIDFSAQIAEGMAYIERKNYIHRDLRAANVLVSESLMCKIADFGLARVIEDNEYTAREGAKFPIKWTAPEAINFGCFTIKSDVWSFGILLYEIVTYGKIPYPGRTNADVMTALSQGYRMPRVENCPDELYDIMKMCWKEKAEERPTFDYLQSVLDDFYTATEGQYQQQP
UniProt O14920, sequence (whole entry, looked up): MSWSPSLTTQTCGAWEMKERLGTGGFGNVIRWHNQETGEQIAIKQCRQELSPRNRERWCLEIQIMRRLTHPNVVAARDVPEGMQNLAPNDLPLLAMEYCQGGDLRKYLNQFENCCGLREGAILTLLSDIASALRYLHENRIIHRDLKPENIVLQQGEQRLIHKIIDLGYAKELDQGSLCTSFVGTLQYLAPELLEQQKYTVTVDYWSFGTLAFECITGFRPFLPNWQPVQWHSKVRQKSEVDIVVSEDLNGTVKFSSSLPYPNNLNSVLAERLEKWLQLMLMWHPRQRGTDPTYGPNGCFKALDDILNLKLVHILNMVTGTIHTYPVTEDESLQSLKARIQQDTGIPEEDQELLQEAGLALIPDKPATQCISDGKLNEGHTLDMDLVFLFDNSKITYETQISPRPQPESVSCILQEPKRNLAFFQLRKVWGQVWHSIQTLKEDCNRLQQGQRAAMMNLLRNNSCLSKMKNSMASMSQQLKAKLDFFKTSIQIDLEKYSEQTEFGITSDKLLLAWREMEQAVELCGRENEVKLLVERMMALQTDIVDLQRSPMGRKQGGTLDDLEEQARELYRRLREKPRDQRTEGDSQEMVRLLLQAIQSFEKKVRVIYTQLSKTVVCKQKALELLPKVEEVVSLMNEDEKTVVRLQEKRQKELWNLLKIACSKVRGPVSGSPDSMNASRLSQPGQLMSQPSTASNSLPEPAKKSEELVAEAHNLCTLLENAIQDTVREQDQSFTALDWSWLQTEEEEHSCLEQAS
UniProt Q9UIK4, sequence (whole entry, looked up): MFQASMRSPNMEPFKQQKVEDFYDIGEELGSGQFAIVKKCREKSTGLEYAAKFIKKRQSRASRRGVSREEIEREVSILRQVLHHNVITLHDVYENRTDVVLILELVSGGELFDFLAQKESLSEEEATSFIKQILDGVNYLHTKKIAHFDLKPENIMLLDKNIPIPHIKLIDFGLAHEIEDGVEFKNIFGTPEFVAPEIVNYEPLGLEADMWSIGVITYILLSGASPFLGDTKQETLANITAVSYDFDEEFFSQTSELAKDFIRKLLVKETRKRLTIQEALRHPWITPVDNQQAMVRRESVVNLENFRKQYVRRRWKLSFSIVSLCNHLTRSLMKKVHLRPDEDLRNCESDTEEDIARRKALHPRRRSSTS

Sample 1 — cell line: HEK-293T/ACE2; concentration: concentration not given; time: 16 (unit not given); relative to: vehicle
| SMILES | viability [%] |
| --- | --- |
| OC(CNCC(O)C1CCc2cc(F)ccc2O1)C1CCc2cc(F)ccc2O1 (stereo not drawn) | 102 |
| CC(CN1c2ccccc2Sc2ccccc21)N(C)C (stereo not drawn) | 98.2 |
| CN(C)CCC(c1ccccc1)c1ccccn1 (stereo not drawn) | 99.1 |
| C#Cc1cccc(Nc2ncnc3cc(OCCOC)c(OCCOC)cc23)c1 | 100 |
| C[N+](C)(C)CCOC(N)=O | 101 |
| O=C1NC(=O)C(c2ccccc2)(c2ccccc2)N1 | 100 |
| CC1=C(CC(=O)O)c2cc(F)ccc2/C1=C\c1ccc([S+](C)[O-])cc1 (stereo not drawn) | 100 |
| Nc1c(CC(=O)O)cccc1C(=O)c1ccc(Br)cc1 | 100 |
| CC1(C)O[C@@H]2C[C@H]3[C@@H]4C[C@H](F)C5=CC(=O)C=C[C@]5(C)[C@@]4(F)[C@@H](O)C[C@]3(C)[C@]2(C(=O)CO)O1 | 103 |
| CCCOc1ccc(C(=O)OCCN(CC)CC)cc1N | 99.1 |
| CC(=O)NCCCS(=O)(=O)O | 99.4 |
| COc1ccc(C(CN(C)C)C2(O)CCCCC2)cc1 (stereo not drawn) | 99.7 |
| CNC(=C[N+](=O)[O-])NCCSCc1csc(CN(C)C)n1 | 99.4 |
| COc1cc2nc(N(C)CCCNC(=O)C3CCCO3)nc(N)c2cc1OC (stereo not drawn) | 98.1 |
| CC1=CC(=O)c2ccccc2C1=O | 95.6 |
| C[C@H](O)C(=O)Nc1c(I)c(C(=O)NC(CO)CO)c(I)c(C(=O)NC(CO)CO)c1I | 101 |
| CCOC(=O)CC(SP(=S)(OC)OC)C(=O)OCC (stereo not drawn) | 98.1 |
| C[N+]1(C)[C@@H]2CC[C@H]1C[C@@H](OC(=O)C(O)c1ccccc1)C2 (stereo partly drawn) | 99.6 |

Sample 2 — organism: Leishmania donovani; effect on: parasite growth; strain: DD8 amphotericin B-resistant
SMILES: c1ccc(Oc2ccc(Nc3c4c(nc5ccccc35)CCC4)cc2)cc1
| system | setting | inhibition |
| --- | --- | --- |
| promastigotes | 0.16 µM | 2% and 8% and 1% and 4% and 7% |
| intracellular amastigotes | 0.02 µM | 0% and 5% and 2% |
| intracellular amastigotes | 8 µM | 100% and 94% and 99% |
| intracellular amastigotes | 2 µM | 81% and 83% and 84% |
| promastigotes | 0.0033 µM | 2% and 1% and 5% |

Sample 3 — effect on: enzyme activity; action: inhibitor; concentration: 77 µM
Target: DNA polymerase theta, ATPase domain (POLQ, Homo sapiens, UniProt O75417)
UniProt O75417, sequence (whole entry, unmodified, looked up): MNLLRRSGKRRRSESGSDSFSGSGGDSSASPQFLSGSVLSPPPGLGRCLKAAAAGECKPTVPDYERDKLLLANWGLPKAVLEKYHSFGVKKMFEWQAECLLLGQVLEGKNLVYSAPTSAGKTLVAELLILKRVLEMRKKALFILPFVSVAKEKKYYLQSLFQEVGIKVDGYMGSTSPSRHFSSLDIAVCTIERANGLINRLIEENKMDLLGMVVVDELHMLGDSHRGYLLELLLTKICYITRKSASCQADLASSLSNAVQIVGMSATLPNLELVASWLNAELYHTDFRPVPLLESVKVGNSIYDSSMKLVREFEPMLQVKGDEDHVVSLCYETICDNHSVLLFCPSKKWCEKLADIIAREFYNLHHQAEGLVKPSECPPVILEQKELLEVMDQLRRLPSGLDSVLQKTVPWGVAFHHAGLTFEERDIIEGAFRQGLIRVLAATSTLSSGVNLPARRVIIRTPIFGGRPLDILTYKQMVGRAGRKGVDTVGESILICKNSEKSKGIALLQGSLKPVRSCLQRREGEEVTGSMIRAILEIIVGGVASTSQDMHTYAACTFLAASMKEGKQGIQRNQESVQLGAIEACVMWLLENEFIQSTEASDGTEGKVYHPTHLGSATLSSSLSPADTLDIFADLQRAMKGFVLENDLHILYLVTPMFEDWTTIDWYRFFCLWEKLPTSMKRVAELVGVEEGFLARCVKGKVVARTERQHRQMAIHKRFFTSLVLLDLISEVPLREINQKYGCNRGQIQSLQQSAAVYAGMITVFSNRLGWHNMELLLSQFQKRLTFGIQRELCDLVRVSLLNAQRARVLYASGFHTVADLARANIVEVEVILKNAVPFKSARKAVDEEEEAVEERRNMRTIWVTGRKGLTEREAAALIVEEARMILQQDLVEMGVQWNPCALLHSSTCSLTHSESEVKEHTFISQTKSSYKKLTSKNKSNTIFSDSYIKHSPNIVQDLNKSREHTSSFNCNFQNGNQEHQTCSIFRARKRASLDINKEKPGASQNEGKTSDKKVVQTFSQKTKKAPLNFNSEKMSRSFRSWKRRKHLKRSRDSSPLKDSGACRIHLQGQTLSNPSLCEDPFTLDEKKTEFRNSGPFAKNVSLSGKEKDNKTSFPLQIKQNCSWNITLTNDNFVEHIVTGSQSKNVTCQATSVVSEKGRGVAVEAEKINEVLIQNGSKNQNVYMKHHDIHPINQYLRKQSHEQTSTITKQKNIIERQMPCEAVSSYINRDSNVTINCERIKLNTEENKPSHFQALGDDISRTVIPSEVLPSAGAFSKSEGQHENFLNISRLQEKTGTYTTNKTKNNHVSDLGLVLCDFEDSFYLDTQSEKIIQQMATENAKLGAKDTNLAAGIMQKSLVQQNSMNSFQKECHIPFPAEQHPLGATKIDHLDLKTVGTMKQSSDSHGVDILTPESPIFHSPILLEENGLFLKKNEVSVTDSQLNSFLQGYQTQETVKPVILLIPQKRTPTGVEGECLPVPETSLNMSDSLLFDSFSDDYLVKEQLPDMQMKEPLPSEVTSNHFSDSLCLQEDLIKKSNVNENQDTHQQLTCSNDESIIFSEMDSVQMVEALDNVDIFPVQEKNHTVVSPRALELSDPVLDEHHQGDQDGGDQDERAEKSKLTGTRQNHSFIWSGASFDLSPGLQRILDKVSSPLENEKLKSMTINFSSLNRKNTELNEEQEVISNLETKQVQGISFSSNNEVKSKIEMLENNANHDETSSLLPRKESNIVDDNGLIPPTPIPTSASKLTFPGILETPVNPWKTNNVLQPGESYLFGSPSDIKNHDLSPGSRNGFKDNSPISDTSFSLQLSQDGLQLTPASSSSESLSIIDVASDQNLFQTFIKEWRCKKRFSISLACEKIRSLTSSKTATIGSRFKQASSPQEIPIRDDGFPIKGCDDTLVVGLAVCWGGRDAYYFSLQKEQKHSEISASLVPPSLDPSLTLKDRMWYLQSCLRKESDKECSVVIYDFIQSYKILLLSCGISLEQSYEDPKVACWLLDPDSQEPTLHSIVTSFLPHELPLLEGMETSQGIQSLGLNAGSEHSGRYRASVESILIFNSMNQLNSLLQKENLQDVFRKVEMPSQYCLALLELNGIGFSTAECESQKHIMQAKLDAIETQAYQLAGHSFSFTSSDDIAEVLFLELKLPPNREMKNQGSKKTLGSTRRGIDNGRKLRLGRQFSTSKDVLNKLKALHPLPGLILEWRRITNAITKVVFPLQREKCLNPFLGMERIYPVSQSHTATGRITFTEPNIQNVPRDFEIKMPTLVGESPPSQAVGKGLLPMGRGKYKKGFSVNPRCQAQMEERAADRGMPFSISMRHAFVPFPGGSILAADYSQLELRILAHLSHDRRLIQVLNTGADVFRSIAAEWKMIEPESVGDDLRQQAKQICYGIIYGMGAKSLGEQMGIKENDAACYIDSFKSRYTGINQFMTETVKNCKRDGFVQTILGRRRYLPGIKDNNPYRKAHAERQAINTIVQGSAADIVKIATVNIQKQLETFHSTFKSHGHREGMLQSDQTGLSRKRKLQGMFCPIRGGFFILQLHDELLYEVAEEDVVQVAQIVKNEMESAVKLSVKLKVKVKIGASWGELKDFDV
| Structure (SMILES) | remaining activity |
| --- | --- |
| C[C@]12CC[C@H]3[C@@H](CC[C@]4(O)C[C@@H](O)CC[C@]34C=O)[C@@]1(O)CC[C@@H]2C1=CC(=O)OC1 | 101% |
| C[C@H](Cc1ccc(OCC(=O)O)cc1)NC[C@H](O)c1cccc(Cl)c1 (relative stereo) | 99.5% |
| CCCN1CCC[C@@H]2Cc3[nH]ncc3C[C@H]21 | 99% |
| CN1CCC2(C)c3cc(O)ccc3N(C)C12 (single isomer, unassigned; (-)) | 100% |
| COc1cc(C(=O)OC2CC3CCC(C2)N3C)ccc1O (stereo not drawn) | 95.3% |
| CN(C)Cc1c[nH]c2ccccc12 | 102% |
| COc1ccc2c(c1O)-c1c(OC)c(OC)cc3c1[C@H](C2)N(C)CC3 | 102% |
| CN(C)C(=O)Oc1cc(OC(=O)N(C)C)cc(C(O)CNC(C)(C)C)c1 (stereo not drawn) | 97.8% |
| O=C1C=CC(=O)c2c1ccc1c2ccc2ccccc21 | 102% |
| NC(=O)c1ccc(OCC(O)CN2CC=C(c3ccc(F)cc3)CC2)cc1 (stereo not drawn) | 99.4% |
| C[N+](C)(C)CC#CCOC(=O)Nc1cccc(Cl)c1 | 104% |

Sample 4 — effect on: enzyme activity; action: inhibitor; concentration: 0.5 µM; relative to: control
Structure (SMILES): COC[C@H]1OC(=O)c2coc3c2[C@@]1(C)C1=C(C3=O)[C@@H]2CCC(=O)[C@@]2(C)C[C@H]1OC(C)=O
| target | remaining activity [%] |
| --- | --- |
| Tyrosine-protein kinase Lyn, isoform B (LYN, Homo sapiens, UniProt P07948) | 98.5 |
| CHEK2 (Homo sapiens, UniProt O96017) | 95.6 |
| IKBKE (Homo sapiens, UniProt Q14164) | 98 |
| OXSR1 (Homo sapiens, UniProt O95747) | 99.6 |
| DAPK1 (Homo sapiens, UniProt P53355) | 106 |
| MAP3K3 (Homo sapiens, UniProt Q99759) | 108 |
| Cyclin-dependent kinase 5, with p25 (CDK5, Homo sapiens, UniProt Q00535) | 87.6 |
| STK11 (Homo sapiens, UniProt Q15831) | 83.5 |
| CAMKK2 (Homo sapiens, UniProt Q96RR4) | 79.3 |
| PRKACA (Homo sapiens, UniProt P17612) | 93 |
| STK39 (Homo sapiens, UniProt Q9UEW8) | 96.5 |
| DAPK2 (Homo sapiens, UniProt Q9UIK4) | 87.1 |
| IKBKB (Homo sapiens, UniProt O14920) | 96.9 |
| Protein kinase C beta type, isoform beta-I (PRKCB, Homo sapiens, UniProt P05771) | 101 |

Some of these lines once more (sample 3):
| Structure (SMILES) | remaining activity |
| --- | --- |
| C[C@H](Cc1ccc(OCC(=O)O)cc1)NC[C@H](O)c1cccc(Cl)c1 (relative stereo) | 99.5% |
| CCCN1CCC[C@@H]2Cc3[nH]ncc3C[C@H]21 | 99% |
| CN1CCC2(C)c3cc(O)ccc3N(C)C12 (single isomer, unassigned; (-)) | 100% |
| COc1cc(C(=O)OC2CC3CCC(C2)N3C)ccc1O (stereo not drawn) | 95.3% |
| CN(C)Cc1c[nH]c2ccccc12 | 102% |
| COc1ccc2c(c1O)-c1c(OC)c(OC)cc3c1[C@H](C2)N(C)CC3 | 102% |
| CN(C)C(=O)Oc1cc(OC(=O)N(C)C)cc(C(O)CNC(C)(C)C)c1 (stereo not drawn) | 97.8% |
